Measured values pooled from the literature.
Parts stem from different laboratories: compare values within a part only.
UniProt Q00537, sequence (whole entry, looked up): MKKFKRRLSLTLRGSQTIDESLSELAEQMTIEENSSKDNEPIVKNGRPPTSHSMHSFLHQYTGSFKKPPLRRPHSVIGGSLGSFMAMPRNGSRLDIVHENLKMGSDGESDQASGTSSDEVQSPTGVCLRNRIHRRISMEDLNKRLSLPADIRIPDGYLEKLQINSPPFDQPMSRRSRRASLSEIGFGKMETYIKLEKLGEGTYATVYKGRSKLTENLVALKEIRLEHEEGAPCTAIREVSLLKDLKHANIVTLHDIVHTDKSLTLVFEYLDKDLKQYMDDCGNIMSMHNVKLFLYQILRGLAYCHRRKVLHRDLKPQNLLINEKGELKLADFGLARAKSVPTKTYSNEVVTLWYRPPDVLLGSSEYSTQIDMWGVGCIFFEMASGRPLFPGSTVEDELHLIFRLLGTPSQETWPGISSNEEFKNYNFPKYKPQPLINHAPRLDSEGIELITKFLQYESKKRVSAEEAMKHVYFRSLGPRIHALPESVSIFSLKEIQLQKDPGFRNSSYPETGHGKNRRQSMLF
UniProt Q15569, sequence (whole entry, looked up): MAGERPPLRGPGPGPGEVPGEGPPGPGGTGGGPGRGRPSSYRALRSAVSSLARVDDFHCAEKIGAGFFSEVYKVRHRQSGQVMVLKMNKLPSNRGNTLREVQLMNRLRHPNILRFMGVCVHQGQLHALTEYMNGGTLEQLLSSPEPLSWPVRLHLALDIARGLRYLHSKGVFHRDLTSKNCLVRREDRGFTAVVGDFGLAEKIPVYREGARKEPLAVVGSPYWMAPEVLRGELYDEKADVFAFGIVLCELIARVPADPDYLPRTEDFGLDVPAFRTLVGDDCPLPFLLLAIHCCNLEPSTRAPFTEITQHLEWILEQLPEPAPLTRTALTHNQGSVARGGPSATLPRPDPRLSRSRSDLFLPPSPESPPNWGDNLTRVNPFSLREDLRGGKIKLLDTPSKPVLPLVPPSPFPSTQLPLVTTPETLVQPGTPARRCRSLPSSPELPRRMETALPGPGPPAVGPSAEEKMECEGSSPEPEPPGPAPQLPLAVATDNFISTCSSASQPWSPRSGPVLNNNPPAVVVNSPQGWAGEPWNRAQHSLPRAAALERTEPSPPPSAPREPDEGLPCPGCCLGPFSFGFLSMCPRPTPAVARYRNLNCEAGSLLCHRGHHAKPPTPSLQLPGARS
UniProt P46734, sequence (whole entry, looked up): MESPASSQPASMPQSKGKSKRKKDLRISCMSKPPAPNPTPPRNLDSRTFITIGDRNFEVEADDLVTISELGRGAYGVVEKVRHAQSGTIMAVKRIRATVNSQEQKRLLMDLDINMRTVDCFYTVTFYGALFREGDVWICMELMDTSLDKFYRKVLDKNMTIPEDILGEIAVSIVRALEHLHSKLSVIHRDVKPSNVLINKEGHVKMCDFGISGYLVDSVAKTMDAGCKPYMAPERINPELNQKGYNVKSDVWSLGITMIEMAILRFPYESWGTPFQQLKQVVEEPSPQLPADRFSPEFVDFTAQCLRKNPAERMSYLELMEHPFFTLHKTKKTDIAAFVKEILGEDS
UniProt P46098, sequence (whole entry, looked up): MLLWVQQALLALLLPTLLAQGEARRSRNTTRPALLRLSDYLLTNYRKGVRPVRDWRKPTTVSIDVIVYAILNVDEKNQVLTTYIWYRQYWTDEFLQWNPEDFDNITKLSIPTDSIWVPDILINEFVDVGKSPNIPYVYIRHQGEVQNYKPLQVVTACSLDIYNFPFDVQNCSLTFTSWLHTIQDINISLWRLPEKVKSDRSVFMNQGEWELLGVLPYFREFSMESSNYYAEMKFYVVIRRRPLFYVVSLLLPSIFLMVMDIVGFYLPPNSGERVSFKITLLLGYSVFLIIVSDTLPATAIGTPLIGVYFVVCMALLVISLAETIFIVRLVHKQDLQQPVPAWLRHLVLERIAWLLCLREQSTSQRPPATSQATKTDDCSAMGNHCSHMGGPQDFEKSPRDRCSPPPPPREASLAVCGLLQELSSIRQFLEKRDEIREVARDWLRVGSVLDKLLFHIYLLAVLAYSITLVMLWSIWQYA
UniProt P45983, sequence (whole entry, looked up): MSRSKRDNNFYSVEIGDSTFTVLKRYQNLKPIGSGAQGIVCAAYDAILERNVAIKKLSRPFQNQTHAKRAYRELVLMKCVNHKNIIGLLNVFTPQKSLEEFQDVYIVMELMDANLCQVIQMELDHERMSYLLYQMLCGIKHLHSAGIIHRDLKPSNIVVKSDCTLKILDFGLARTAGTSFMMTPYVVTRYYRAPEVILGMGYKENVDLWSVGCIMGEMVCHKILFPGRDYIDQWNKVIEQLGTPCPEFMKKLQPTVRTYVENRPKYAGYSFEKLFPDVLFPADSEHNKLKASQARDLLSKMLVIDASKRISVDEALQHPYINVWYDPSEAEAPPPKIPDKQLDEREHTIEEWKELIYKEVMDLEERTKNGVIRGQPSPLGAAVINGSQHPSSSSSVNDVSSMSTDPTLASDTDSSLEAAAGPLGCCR
UniProt Q06418, sequence (whole entry, looked up): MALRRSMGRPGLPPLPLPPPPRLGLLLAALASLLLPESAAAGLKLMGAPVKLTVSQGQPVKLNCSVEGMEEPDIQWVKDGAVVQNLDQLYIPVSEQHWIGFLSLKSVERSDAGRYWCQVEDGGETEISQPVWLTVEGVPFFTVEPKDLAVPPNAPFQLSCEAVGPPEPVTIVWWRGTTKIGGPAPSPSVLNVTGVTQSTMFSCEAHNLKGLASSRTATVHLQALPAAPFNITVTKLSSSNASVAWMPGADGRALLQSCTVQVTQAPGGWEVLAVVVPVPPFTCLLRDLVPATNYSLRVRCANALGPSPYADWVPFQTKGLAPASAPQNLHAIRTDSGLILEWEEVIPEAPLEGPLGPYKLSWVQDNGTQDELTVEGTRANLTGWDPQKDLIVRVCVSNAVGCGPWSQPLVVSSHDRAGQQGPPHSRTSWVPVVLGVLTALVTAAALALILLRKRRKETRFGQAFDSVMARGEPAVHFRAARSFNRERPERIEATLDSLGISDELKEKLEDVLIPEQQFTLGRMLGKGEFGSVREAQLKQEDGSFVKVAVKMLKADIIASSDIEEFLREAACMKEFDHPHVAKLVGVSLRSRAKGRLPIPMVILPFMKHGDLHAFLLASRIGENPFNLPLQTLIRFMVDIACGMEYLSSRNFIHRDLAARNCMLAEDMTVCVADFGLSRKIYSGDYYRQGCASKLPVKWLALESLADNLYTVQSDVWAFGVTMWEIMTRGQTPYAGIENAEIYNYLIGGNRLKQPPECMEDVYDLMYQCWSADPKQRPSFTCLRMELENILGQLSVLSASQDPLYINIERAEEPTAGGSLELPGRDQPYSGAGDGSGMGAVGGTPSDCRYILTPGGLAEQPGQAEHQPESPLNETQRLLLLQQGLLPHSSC
UniProt P04049, sequence (whole entry, looked up): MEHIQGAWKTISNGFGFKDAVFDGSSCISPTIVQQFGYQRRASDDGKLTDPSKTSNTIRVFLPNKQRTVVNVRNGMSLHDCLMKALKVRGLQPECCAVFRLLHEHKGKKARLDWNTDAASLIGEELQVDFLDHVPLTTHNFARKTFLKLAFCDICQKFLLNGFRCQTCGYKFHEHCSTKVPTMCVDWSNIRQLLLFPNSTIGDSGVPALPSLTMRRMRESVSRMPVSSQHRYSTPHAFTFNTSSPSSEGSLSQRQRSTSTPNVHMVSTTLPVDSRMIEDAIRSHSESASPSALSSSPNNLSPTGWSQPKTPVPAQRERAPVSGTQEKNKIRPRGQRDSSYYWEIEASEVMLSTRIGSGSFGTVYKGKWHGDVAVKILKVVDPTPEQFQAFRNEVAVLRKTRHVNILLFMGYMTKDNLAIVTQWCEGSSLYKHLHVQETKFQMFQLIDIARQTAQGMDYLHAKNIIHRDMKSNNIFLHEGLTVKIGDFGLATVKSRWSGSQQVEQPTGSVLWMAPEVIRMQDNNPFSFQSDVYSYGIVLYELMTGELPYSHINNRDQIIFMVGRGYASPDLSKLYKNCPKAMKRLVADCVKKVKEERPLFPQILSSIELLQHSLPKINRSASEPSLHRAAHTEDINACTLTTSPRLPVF

Series 1 — read-out: enzyme activity; mode: inhibitor; tested at: 0.5 µM; baseline: control
Target: Serine/threonine-protein kinase pim-1 (PIM1, Homo sapiens, UniProt P11309)
UniProt P11309, sequence (whole entry, looked up): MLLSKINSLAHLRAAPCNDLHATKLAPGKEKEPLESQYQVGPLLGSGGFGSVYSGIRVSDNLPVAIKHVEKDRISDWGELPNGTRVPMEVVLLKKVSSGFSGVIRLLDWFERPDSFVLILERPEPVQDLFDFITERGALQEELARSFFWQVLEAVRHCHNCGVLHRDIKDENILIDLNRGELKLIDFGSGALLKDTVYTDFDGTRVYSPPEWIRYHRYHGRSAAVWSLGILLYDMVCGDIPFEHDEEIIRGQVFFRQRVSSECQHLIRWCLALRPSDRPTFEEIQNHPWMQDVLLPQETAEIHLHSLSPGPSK
Structure (SMILES)	remaining activity
N#C/C(=C\c1ccc(O)c(O)c1)C(=O)NCc1ccccc1	108%
CCOc1nc(NC(=O)Cc2cc(OC)ccc2OC)cc(N)c1C#N	104%
COc1cc2ncnc(Nc3ccc(O)c(Br)c3)c2cc1OC	75.5%
CCN(CC)C(=O)c1ccc(Nc2nc(OCC3CCCCC3)c3[nH]cnc3n2)cc1	95.6%
c1ccc(-c2[nH]ncc2-c2ccnc3ccccc23)nc1	107%
C[C@@H]1CCN(C(=O)CC#N)C[C@@H]1N(C)c1ncnc2[nH]ccc12	102%
Cc1cn(-c2cc(NC(=O)c3ccc(C)c(Nc4nccc(-c5cccnc5)n4)c3)cc(C(F)(F)F)c2)cn1	97.4%
CN([C@@H](Cc1ccc(OS(=O)(=O)c2cccc3cnccc23)cc1)C(=O)N1CCN(c2ccccc2)CC1)S(=O)(=O)c1cccc2cnccc12	106%
COc1cc2c(cc1OC)-c1[nH]nc(Nc3cccc(F)c3)c1C2	97.2%
O=C(NC(NC(=S)Nc1ccc(F)c([N+](=O)[O-])c1)C(Cl)(Cl)Cl)C(c1ccccc1)c1ccccc1 (stereo not shown)	101%
Ic1cccc(CSc2nnc(-c3ccncc3)o2)c1	102%
O=C1c2ccccc2-c2n[nH]c3cccc1c23	61.2%
Nc1cccc(-c2cc3c(Oc4cccc(O)c4)ncnc3[nH]2)c1	85.9%
Cc1cc2ncc(-c3ccccc3)nc2cc1C	101%
Cc1nc2cc3nc(-c4cccs4)cnc3cc2n1C	103%
O=c1cc(-c2cccc3c2Sc2ccccc2S3)oc(N2CCOCC2)c1	77.6%
O=C1C(Cl)=C(N2C(=O)CCC2=O)C(=O)c2ccccc21	100%
CN(C)C[C@H]1CCn2c(c(C3=C(c4cn(C)c5ccccc45)C(=O)NC3=O)c3ccccc32)C1	63.2%
CCN(CC)CCNC(=O)c1c(C)[nH]c(/C=C2\C(=O)Nc3ccc(Cl)cc32)c1C	91.7%
COc1cc2ncnc(Nc3cccc(Cl)c3)c2cc1OC	91.5%
Cn1nc2c3c(cccc31)C(=O)c1ccccc1-2	80.3%
c1ccc(-c2cnc(Nc3ccc(OCCN4CCCC4)cc3)s2)cc1	100%
N#Cc1c(NC(=O)c2cccc3ccccc23)sc2c1CCCC2	105%
O=C(Nc1cccc(Nc2nccc(Nc3cccc(C(F)(F)F)c3)n2)c1)C1CC1	103%

Series 2 — read-out: binding; tested at: 1 µM
Compound: CN1CCN(C(=O)c2ccc(NC(=O)Nc3ccc(N(C)c4ccnc(Nc5ccc(CS(C)(=O)=O)cc5)n4)cc3)cc2)CC1
target	method	remaining binding
RAF1 (Homo sapiens, UniProt P04049)	competition with immobilised ligand	90%
CDK17 (Homo sapiens, UniProt Q00537)	competition with immobilised ligand	91%
LTK (Homo sapiens, UniProt P29376)	–	85%
HASPIN (Homo sapiens, UniProt Q8TF76)	–	92%
SYK (Homo sapiens, UniProt P43405)	competition with immobilised ligand	34%
TAOK3 (Homo sapiens, UniProt Q9H2K8)	competition with immobilised ligand	83%
WNK1 (Homo sapiens, UniProt Q9H4A3)	–	94%
NTRK1 (Homo sapiens, UniProt P04629)	competition with immobilised ligand	7.1%
MAP2K3 (Homo sapiens, UniProt P46734)	–	14%
TESK1 (Homo sapiens, UniProt Q15569)	competition with immobilised ligand	100%
TYRO3 (Homo sapiens, UniProt Q06418)	–	92%
MAPK8 (Homo sapiens, UniProt P45983)	–	5.5%

Series 3 — organism: Sarcocystis neurona; read-out: parasite growth; tested at: 10 µM
SMILES	inhibition [%]
CCCCC1=NC2(CCCC2)C(=O)N1Cc1ccc(-c2ccccc2-c2nnn[nH]2)cc1	2.8
Nc1ccc(S(=O)(=O)c2ccc(N)cc2)cc1	-22.6
CC(COc1ccccc1Cc1ccccc1)N1CCCCC1.O=P(O)(O)O (stereo not shown)	8.3
OC(CCN1CCCC1)(c1ccccc1)C1CCCCC1 (stereo not shown)	7.5
CCC1=C(C)CN(C(=O)NCCc2ccc(S(=O)(=O)NC(=O)N[C@H]3CC[C@H](C)CC3)cc2)C1=O	-39.3
CC(C)(C(=O)O)c1ccc(C(O)CCCN2CCC(C(O)(c3ccccc3)c3ccccc3)CC2)cc1 (stereo not shown)	-28.6
Clc1ccccc1C(c1ccccc1)(c1ccccc1)n1ccnc1	53.8
CC(=O)OCC(=O)[C@@]1(O)CC[C@H]2[C@@H]3CCC4=CC(=O)CC[C@]4(C)[C@H]3[C@@H](O)C[C@@]21C	5.2
C[C@]12CC[C@@H]3c4ccc(O)cc4CC[C@H]3[C@@H]1CC[C@@H]2O	-44.2
O=c1[nH]cc(F)c(=O)[nH]1	75.6
CCOC(=O)[C@H](CCc1ccccc1)N[C@@H](C)C(=O)N1Cc2ccccc2C[C@H]1C(=O)O	-29.7
Cc1c(O)c(=O)ccn1C	-21.8

Mixed results
SMILES	target	read-out	method	tested at	quantity	value
Cc1cc(-n2nc(Cc3cc(F)cc(C(F)(F)F)c3)nc2C)ccc1C(N)=O	5-hydroxytryptamine receptor 3A (HTR3A, Homo sapiens, UniProt P46098)	binding	radioligand binding	10 µM	inhibition	5.45%
